Measured values of several laboratories.
Each numbered part is a random draw from the data of one study; scales do not carry over between parts. “And” joins repeats or separate records; there may be more than shown.

Study 1 — cell line: mouse MPNST tumor cells; method: high-content immunofluorescence imaging; refers to: nuclear SOX9; concentration: 10 µM; time: 12 h; setting: mean of 2 replicates; baseline: DMSO control; reading: higher = more nuclear SOX9; measurement: nuclear SOX9 intensity
Nc1ccccc1S(N)(=O)=O: 105 % of DMSO
CC(=O)OCC(=O)C1(O)CCC2C3CCC4=CC(=O)CCC4(C)C3C(O)CC21C (stereo not shown): 96.3 % of DMSO
CCCN[C@H]1CCc2nc(N)sc2C1: 97.7 % of DMSO and 102 % of DMSO and 103 % of DMSO
CN(C)CCN(Cc1ccccc1)c1ccccn1: 105 % of DMSO
Cc1ccc(S(=O)(=O)n2c(N)nc3ccccc32)cc1: 102 % of DMSO
N#Cc1cc(C2=Nc3ccc(Br)cc3NC(=O)C2)ccn1: 84.3 % of DMSO
CCCCOCCOc1nc(-c2ccc(C(=O)O)c(F)c2)sc1C: 121 % of DMSO
CC[N+](C)(CC)CCOC(=O)C1c2ccccc2Oc2ccccc21: 96.5 % of DMSO

Study 2 — observed: enzyme activity; action: inhibitor; concentration: 0.5 µM; baseline: control; measurement: remaining activity
Target: Ribosomal protein S6 kinase alpha-1 (RPS6KA1, Homo sapiens, UniProt Q15418)
UniProt Q15418, sequence (whole entry, looked up): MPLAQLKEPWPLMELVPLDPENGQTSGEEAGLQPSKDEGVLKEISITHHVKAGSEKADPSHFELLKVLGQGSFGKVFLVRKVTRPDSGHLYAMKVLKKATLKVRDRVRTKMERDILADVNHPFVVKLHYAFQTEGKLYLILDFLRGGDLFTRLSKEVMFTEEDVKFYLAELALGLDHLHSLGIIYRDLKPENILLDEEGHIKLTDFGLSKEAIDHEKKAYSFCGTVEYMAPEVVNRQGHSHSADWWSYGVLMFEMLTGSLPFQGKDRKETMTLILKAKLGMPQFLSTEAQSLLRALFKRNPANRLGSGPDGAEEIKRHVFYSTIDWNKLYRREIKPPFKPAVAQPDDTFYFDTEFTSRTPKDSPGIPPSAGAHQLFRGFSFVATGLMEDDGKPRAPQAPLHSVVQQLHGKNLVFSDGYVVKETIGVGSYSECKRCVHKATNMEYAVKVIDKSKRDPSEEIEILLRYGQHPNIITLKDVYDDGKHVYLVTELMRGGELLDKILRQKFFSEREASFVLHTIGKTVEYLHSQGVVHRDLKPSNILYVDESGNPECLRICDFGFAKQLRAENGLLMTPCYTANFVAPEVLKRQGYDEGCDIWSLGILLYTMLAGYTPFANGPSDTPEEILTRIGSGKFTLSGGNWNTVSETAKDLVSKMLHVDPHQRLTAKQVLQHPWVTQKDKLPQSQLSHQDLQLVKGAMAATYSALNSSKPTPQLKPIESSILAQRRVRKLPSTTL
Cc1nc2cc3nc(-c4cccs4)cnc3cc2n1C: 99.4%
Cn1nc2c3c(cccc31)C(=O)c1ccccc1-2: 93.7%
Cc1cc2ncc(-c3ccccc3)nc2cc1C: 99.2%
COc1cc2ncnc(Nc3ccc(O)c(Br)c3)c2cc1OC: 78.2%
CCN(CC)CCNC(=O)c1c(C)[nH]c(/C=C2\C(=O)Nc3ccc(Cl)cc32)c1C: 13.1%
O=C(NC(NC(=S)Nc1ccc(F)c([N+](=O)[O-])c1)C(Cl)(Cl)Cl)C(c1ccccc1)c1ccccc1 (stereo not shown): 105%
c1ccc(-c2[nH]ncc2-c2ccnc3ccccc23)nc1: 88.1%
O=C1C(Cl)=C(N2C(=O)CCC2=O)C(=O)c2ccccc21: 96.6%
Cc1cn(-c2cc(NC(=O)c3ccc(C)c(Nc4nccc(-c5cccnc5)n4)c3)cc(C(F)(F)F)c2)cn1: 104%
COc1cc2ncnc(Nc3cccc(Cl)c3)c2cc1OC: 87.3%
O=C(Nc1cccc(Nc2nccc(Nc3cccc(C(F)(F)F)c3)n2)c1)C1CC1: 92.8%
Nc1cccc(-c2cc3c(Oc4cccc(O)c4)ncnc3[nH]2)c1: 105%
COc1cc2c(cc1OC)-c1[nH]nc(Nc3cccc(F)c3)c1C2: 84.1%
CCN(CC)C(=O)c1ccc(Nc2nc(OCC3CCCCC3)c3[nH]cnc3n2)cc1: 57.1%
CCOc1nc(NC(=O)Cc2cc(OC)ccc2OC)cc(N)c1C#N: 79.9%
O=c1cc(-c2cccc3c2Sc2ccccc2S3)oc(N2CCOCC2)c1: 97.6%
CN(C)C[C@H]1CCn2c(c(C3=C(c4cn(C)c5ccccc45)C(=O)NC3=O)c3ccccc32)C1: 5.9%
O=C1c2ccccc2-c2n[nH]c3cccc1c23: 68.4%
c1ccc(-c2cnc(Nc3ccc(OCCN4CCCC4)cc3)s2)cc1: 78%
N#Cc1c(NC(=O)c2cccc3ccccc23)sc2c1CCCC2: 86.1%

Study 3 — cell line: Huh-7; concentration: 10 µM; time: 24 h; measurement: viability
Cc1cn([C@H]2C[C@H](N=[N+]=[N-])[C@@H](CO)O2)c(=O)[nH]c1=O: 92%
CCCNC(=O)NS(=O)(=O)c1ccc(Cl)cc1: 103%
O=C1CN(/N=C/c2ccc([N+](=O)[O-])o2)C(=O)N1: 101%
O=C(CCNNC(=O)c1ccncc1)NCc1ccccc1: 100%
OCc1ccccc1O: 105%
C[n+]1cc2c3c(ccc2c2ccc4cc5c(cc4c21)OCO5)OCO3: 12.6%
CCN(Cc1ccncc1)C(=O)C(CO)c1ccccc1 (stereo not shown): 101%
CC(CN(C)C)CN1c2ccccc2CCc2ccccc21 (stereo not shown): 98.5%
CCN(CC)C(=O)c1cccc(C)c1: 98.3%
C[C@@H]1C[C@H]2[C@@H]3CCC4=CC(=O)C=C[C@]4(C)[C@@]3(F)[C@@H](O)C[C@]2(C)[C@@]1(O)C(=O)CO: 101%
COc1ccc(Cl)cc1C(=O)NCCc1ccc(S(=O)(=O)NC(=O)NC2CCCCC2)cc1: 97.4%
COc1cccc(OC)c1C(=O)N[C@@H]1C(=O)N2[C@@H]1SC(C)(C)[C@@H]2C(=O)O: 103%
Oc1ccc(OCc2ccccc2)cc1: 74.9%
CC(=O)[C@H]1CC[C@H]2[C@@H]3CCC4=CC(=O)CC[C@]4(C)[C@H]3CC[C@]12C: 81.3%

Single results of other studies
Cn1cncc1[C@@](O)(COc1ccc(C#N)cc1-c1ccc(OC(F)(F)F)cc1)c1ccc(C#N)cc1
cells with altered tubulin phenotype (HEK293T; high-content imaging; 10 µM, 12 h): 93.3% and 96.2%
